Assay results gathered from unrelated publications.
Several values in a cell are separate wells, animals, samples, runs or records. ± gives the spread as reported.

SMILES	tested on	test	test system	setting	how to read	quantity	value
Cc1ccc(N(C)C2(C)CN(C)C2)cc1C(=O)N[C@H](C)c1cc(-c2cnn(C)c2)nc2ccccc12	Vero E6			31.25 µM		viability	96.9% and 104% and 103%
O=C1NC2(CC2)COc2ncc(F)cc2[C@H]2COCCN2c2ccn3ncc1c3n2			Sprague-Dawley rat, male, blood	oral, 20 mg/kg/day, end of treatment, 4-week repeated-dose toxicity	baseline: red blood cells	reticulocytes	3.12 ± 1.98%
Cc1ccc(OCCN(C)C)cc1C(=O)N[C@H](C)c1cc(-c2cnn(CC(=O)N(C)C)c2)nc2ccccc12	African green monkey cells			15.62 µM		viability	92.8%
COc1ccc2c3c1O[C@H]1[C@H](O)CC[C@H]4[C@@H](C2)N(C)CC[C@@]341		pH-potentiometric titration			baseline: O-methyl derivative	Δlog K, saturation effect	0.58 log units
CCCCCC1=C(NCC)C(=O)C(C/C=C(\C)CCC=C(C)C)=C(O)C1=O	human peripheral lymphocytes			40 µg/mL, 3 h, without S9, harvest 27 h		cytostasis	56%
CC(=O)NCCCC[C@@H]1NC(=O)[C@H](Cc2c[nH]c3c(C)cccc23)NC(=O)[C@H]([C@@H](C)O)NC(=O)[C@H](CC(N)=O)NC(=O)[C@@H](NC(C)=O)C(C)(C)SSC(C)(C)[C@@H](C(=O)N[C@@H](Cc2ccc(OCCN)cc2)C(=O)N[C@@H](Cc2ccc3ccccc3c2)C(=O)NC2(C(=O)N[C@@H](CCC(=O)O)C(=O)N[C@@H](CC(N)=O)C(=O)N[C@@H](Cc3cccnc3)C(=O)N(C)CC(N)=O)CCOCC2)NC1=O	Albumin (ALB, Homo sapiens, UniProt P02768)	equilibrium dialysis	purified human albumin	0.01 µM		protein binding	29.6 ± 4.1 % bound
Cc1ccc(OCCN(C)C)cc1C(=O)N[C@H](C)c1cc(-c2cnn(C3CNC3)c2)nc2ccccc12	Vero E6			7.812 µM		viability	107% and 104%
O=C(O)CCCOc1ccc(O)cc1-c1cc(-c2ccccc2C(F)(F)F)n(-c2ccccc2)n1	Escherichia coli	Ames test	WP2 uvrA	concentration not given, with metabolic activation		growth inhibitory concentration	≥ 625 µg/plate
CC(C)N1CN(C2c3ccccc3CCc3ccccc32)n2cc(C(=O)O)c(=O)c(O)c2C1=O			bovine cells			CC50	> 10 µM
COc1ccc2c3c1O[C@H]1[C@H](O)C=C[C@H]4[C@@H](C2)N(C)CC[C@@]341			octanol/buffer	1 h, pH 7.4		logD	0.42
Cc1nc2cccc(OCC(C)(C)C(=O)NC(C)C)c2c(N)c1C(=O)[O-].[Na+]	Salmonella typhimurium		TA1537	0.13 mg per plate, with S9, preincubation		revertant colonies per plate	15 ± 6
Cc1ccc(NC2(C)CN(C)C2)cc1C(=O)N[C@H](C)c1cc(-c2cnn(C)c2)nc2ccccc12	Vero E6			3.906 µM		viability	89.4% and 88.9% and 92.6%

Repeated from above:
SMILES	tested on	test	test system	setting	how to read	quantity	value
COc1ccc2c3c1O[C@H]1[C@H](O)CC[C@H]4[C@@H](C2)N(C)CC[C@@]341		pH-potentiometric titration			baseline: O-methyl derivative	Δlog K, saturation effect	0.58 log units
CCCCCC1=C(NCC)C(=O)C(C/C=C(\C)CCC=C(C)C)=C(O)C1=O	human peripheral lymphocytes			40 µg/mL, 3 h, without S9, harvest 27 h		cytostasis	56%
